Published values collected from several papers.
Cell line: UACC-257

Compound = O=C1NC(c2ccccc2)(c2ccccc2)C(=O)N1Cc1cn(-c2c3ccccc3nc3ccccc23)nn1; assay = NCI60 single-dose screen; setting = 10 µM; endpoint = growth percentage; result = 89.1%
Compound = C#C[C@@]1(O)[C@@H](CO)O[C@@H](n2ccc3c(N)ncnc32)[C@@H]1O; assay = SRB; setting = NCI-60 screen; endpoint = TGI; result = 7.05 µM
Compound = CSc1nc(-c2ccc(Cl)cc2)c2c(NC(=O)c3ccccc3)nnc-2[nH]1; assay = SRB; setting = 10 µM, NCI60 single-dose screen; how to read = reference: untreated; endpoint = cell growth; result = 98.8%
Compound = Cc1cc(=O)[nH]c(=O)n1Cc1cn(-c2c3ccccc3nc3ccccc23)nn1; assay = NCI60 single-dose screen; setting = 10 µM; endpoint = growth percentage; result = 67%
Compound = S=C([S][Au-][P+](CCCCCC[P+]([Au-][S]C(=S)n1cccn1)(c1ccccc1)c1ccccc1)(c1ccccc1)c1ccccc1)n1cccn1; assay = cell growth, NCI-60 screen; setting = melanoma; endpoint = log10 TGI; result = > -4
Compound = O=C(Nc1nnc2n3c(=S)[nH][nH]c3nc(-c3ccc(Cl)cc3)c1-2)c1ccccc1; assay = SRB; setting = 10 µM, NCI60 single-dose screen; how to read = reference: untreated; endpoint = cell growth; result = 105%
Compound = CCCN1CCN(c2ccc3[nH]c(-c4ccc5[nH]c(-c6ccc(C(F)(F)F)cc6)nc5c4)nc3c2)CC1; assay = SRB; setting = 10 µM, 48 h; endpoint = growth percent; result = 96.5%
Compound = NNc1nc(-c2ccc(Cl)cc2)c2c(NC(=O)c3ccccc3)nnc-2[nH]1; assay = SRB; setting = 10 µM, NCI60 single-dose screen; how to read = reference: untreated; endpoint = cell growth; result = 103%
Compound = CCCCN1CCN(c2ccc3[nH]c(-c4ccc5[nH]c(-c6ccc(OCC)c(OCC)c6)nc5c4)nc3c2)CC1; assay = SRB; setting = 10 µM, 48 h; endpoint = growth percent; result = 29%
Compound = C#C[C@@]1(O)[C@@H](CO)O[C@@H](n2cc(F)c3c(N)ncnc32)[C@@H]1O; assay = SRB; setting = NCI-60 screen; endpoint = TGI; result = 4.64 µM
Compound = COc1ccc(OC)c(-c2nc3ccc(-c4nc5ccc(N6CCN(C)CC6)cc5[nH]4)cc3[nH]2)c1; assay = SRB; setting = 10 µM, 48 h; endpoint = growth percent; result = 105%
Compound = O=C(/C=C/C=C/C=C/C1CCCCC1)NC1=C[C@@](O)(/C=C/C=C/C=C/C(=O)NC2=C(O)CCC2=O)[C@@H]2O[C@@H]2C1=O; assay = cell growth, CellTiter-Glo; setting = 78 h; endpoint = GI50; result = 17.6 µM
Compound = O=C(Nc1nnc2[nH]c(=S)[nH]c(-c3ccc(Cl)cc3)c1-2)c1ccccc1; assay = SRB; setting = 10 µM, NCI60 single-dose screen; how to read = reference: untreated; endpoint = cell growth; result = 106%
Compound = O=c1ccn(Cc2cn(-c3c4ccccc4nc4ccccc34)nn2)c(=O)[nH]1; assay = NCI60 single-dose screen; setting = 10 µM; endpoint = growth percentage; result = 85.6%
Compound = CCCCN1CCN(c2ccc3[nH]c(-c4ccc5[nH]c(-c6cc(OC)c(OC)c(OC)c6)nc5c4)nc3c2)CC1; assay = SRB; setting = 10 µM, 48 h; endpoint = growth percent; result = 87.9%
Compound = O=C(Nc1nnc2n3c(Cc4ccccc4)n[nH]c3nc(-c3ccc(Cl)cc3)c1-2)c1ccccc1; assay = SRB; setting = 10 µM, NCI60 single-dose screen; how to read = reference: untreated; endpoint = cell growth; result = 102%
Compound = CCCCN1CCN(c2ccc3[nH]c(-c4ccc5[nH]c(-c6ccc(OCC)cc6)nc5c4)nc3c2)CC1; assay = SRB; setting = 10 µM, 48 h; endpoint = growth percent; result = 68.2%
Compound = Cn1cncc1C1=CN(c2ncnc3[nH]cnc23)CCS1; setting = melanoma cell line; endpoint = GI50; result = 37.2 µM
Compound = CCCCN1CCN(c2ccc3nc(-c4ccc5nc(-c6cc(OC)ccc6OC)[nH]c5c4)[nH]c3c2)CC1; assay = SRB; setting = 10 µM, 48 h; endpoint = growth percent; result = 104%
Compound = Cc1n[nH]c2nc(-c3ccc(Cl)cc3)c3c(NC(=O)c4ccccc4)nnc-3n12; assay = SRB; setting = 10 µM, NCI60 single-dose screen; how to read = reference: untreated; endpoint = cell growth; result = 107%

For quick reference, copied from above:
Compound = CSc1nc(-c2ccc(Cl)cc2)c2c(NC(=O)c3ccccc3)nnc-2[nH]1; assay = SRB; setting = 10 µM, NCI60 single-dose screen; how to read = reference: untreated; endpoint = cell growth; result = 98.8%
Compound = Cn1cncc1C1=CN(c2ncnc3[nH]cnc23)CCS1; setting = melanoma cell line; endpoint = GI50; result = 37.2 µM
Compound = Cc1n[nH]c2nc(-c3ccc(Cl)cc3)c3c(NC(=O)c4ccccc4)nnc-3n12; assay = SRB; setting = 10 µM, NCI60 single-dose screen; how to read = reference: untreated; endpoint = cell growth; result = 107%
